Assay results pooled from the literature.
Each line is one published result; not all experiments were run side by side.
CALCR: Calcitonin receptor (CALCR, Homo sapiens, UniProt P30988)
Sequence of UniProt P30988 (whole entry, looked up): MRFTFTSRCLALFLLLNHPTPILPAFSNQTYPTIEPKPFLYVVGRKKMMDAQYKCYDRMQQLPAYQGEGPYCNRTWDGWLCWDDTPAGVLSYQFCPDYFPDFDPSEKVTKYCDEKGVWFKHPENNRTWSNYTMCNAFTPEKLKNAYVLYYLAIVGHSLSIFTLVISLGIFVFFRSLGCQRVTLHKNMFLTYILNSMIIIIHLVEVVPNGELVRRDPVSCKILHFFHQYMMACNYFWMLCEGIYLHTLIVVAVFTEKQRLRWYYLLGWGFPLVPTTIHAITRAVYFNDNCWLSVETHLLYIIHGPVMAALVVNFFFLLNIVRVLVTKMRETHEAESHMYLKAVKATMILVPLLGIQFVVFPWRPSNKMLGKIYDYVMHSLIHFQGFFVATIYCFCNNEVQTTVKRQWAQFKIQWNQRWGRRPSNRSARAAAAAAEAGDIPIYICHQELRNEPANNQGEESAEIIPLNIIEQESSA
Sequence of UniProt Q9H8M2 (whole entry, looked up): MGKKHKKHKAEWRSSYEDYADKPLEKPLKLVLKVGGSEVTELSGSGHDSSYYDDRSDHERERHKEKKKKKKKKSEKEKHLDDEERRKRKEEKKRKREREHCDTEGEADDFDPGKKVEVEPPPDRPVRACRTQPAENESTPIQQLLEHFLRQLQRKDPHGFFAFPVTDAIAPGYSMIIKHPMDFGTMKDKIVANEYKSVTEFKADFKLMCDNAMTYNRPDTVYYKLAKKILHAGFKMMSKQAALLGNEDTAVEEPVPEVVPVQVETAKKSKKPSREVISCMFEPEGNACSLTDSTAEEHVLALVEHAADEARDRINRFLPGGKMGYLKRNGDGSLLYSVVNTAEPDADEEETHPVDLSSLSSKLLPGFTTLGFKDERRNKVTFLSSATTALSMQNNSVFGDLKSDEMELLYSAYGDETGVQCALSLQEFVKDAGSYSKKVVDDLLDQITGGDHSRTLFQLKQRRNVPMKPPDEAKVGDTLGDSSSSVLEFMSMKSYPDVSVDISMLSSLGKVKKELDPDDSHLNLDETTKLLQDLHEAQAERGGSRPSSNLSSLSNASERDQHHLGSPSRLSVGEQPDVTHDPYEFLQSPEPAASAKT
Sequence of UniProt P40337 (whole entry, looked up): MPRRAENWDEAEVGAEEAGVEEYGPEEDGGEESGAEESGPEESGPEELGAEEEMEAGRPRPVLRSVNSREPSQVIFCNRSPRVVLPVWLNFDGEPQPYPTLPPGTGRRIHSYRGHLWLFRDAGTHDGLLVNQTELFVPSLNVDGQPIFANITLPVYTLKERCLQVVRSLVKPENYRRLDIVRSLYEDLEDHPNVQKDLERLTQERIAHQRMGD
Sequence of UniProt P0DMS8 (whole entry, unmodified, looked up): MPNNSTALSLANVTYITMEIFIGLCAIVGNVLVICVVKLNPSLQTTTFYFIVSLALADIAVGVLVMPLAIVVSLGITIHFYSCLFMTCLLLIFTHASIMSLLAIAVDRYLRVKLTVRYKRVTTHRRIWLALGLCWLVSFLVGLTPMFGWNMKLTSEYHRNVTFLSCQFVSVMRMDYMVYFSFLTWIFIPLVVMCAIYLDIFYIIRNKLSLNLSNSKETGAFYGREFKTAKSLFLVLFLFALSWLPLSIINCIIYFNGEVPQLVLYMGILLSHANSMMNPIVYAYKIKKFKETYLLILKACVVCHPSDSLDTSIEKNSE
Sequence of UniProt Q04206 (whole entry, looked up): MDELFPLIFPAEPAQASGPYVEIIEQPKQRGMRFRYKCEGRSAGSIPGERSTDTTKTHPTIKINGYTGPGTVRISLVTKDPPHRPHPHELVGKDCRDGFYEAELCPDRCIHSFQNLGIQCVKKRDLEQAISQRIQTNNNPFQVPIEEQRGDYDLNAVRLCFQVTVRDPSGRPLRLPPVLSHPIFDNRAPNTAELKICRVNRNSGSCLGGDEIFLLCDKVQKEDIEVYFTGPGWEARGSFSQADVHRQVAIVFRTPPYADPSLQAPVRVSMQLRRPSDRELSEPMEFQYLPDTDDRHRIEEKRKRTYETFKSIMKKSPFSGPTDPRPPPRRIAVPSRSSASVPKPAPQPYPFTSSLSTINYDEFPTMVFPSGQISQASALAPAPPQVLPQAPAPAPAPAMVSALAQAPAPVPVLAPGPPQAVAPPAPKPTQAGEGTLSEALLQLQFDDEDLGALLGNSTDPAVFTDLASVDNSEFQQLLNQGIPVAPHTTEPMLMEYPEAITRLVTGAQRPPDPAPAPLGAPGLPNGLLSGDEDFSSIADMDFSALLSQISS
Sequence of UniProt P61981 (whole entry, looked up): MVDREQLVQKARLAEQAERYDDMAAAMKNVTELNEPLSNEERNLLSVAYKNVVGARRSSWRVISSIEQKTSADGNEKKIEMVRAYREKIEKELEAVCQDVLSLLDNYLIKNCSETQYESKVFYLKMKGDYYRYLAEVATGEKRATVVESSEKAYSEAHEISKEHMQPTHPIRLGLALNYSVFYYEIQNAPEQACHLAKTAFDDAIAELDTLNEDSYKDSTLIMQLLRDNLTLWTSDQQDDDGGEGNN
Sequence of UniProt O75762 (whole entry, unmodified, looked up): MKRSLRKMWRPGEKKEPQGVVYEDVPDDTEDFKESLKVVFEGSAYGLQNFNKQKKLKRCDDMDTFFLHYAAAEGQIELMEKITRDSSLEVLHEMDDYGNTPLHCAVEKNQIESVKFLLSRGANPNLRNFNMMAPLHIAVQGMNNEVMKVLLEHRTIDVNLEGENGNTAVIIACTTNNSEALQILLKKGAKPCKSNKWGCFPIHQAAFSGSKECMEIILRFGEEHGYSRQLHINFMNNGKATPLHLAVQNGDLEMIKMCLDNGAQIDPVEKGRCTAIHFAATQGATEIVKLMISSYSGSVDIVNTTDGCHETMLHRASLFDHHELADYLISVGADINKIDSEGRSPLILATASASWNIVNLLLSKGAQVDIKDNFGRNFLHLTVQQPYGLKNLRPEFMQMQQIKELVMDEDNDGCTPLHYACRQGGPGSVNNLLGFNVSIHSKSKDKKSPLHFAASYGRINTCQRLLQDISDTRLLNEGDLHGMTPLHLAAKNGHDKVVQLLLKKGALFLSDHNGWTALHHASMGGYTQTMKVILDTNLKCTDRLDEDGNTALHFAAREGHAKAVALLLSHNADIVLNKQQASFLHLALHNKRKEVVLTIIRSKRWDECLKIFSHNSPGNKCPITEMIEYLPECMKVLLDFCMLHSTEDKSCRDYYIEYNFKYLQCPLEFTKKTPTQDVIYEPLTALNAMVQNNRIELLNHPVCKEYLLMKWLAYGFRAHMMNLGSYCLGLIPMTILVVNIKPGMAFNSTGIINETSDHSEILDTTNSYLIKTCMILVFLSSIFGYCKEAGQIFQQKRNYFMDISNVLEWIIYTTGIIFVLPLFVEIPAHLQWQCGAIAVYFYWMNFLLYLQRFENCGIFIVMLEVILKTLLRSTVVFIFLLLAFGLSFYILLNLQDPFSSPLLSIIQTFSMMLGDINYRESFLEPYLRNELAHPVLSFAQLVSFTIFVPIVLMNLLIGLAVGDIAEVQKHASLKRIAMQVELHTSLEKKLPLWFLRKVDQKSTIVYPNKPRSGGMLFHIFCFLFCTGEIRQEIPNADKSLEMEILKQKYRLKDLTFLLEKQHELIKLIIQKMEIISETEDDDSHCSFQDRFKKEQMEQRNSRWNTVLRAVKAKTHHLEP

CNc1ncnc2c1ncn2C1OC(CO)C(O)C1O (centres unmarked) — EC50 (Adenosine receptor A3 (ADORA3, Homo sapiens, UniProt P0DMS8, V169L); G protein activation, agonist): 0.018 µM
CC(C)S(=O)(=O)Oc1cc(C=O)ccc1[N+](=O)[O-] — EC50 (YWHAG/RELA, phospho-Ser45 p65 peptide (Homo sapiens, UniProt P61981+Q04206); ternary complex formation, stabilizer, fluorescence anisotropy): > 1000 µM
CC[C@H]1CN([C@@H](CC)c2ccc(C(F)(F)F)cc2)[C@H](CC)CN1c1nc(=O)n(C)c2ccc(C#N)nc12 — EC50 (Diacylglycerol kinase zeta (DGKZ, Homo sapiens, UniProt Q13574); membrane translocation, high-content imaging; Jurkat, DGKζ-YFP; 1 h): 0.008 µM
CC[C@H](C)[C@@H](C(=O)N[C@@H](CC(C)C)C(=O)N[C@@H](CO)C(=O)N[C@@H](CO)C(=O)N[C@H](C(=O)N[C@@H](CC(N)=O)C(=O)N[C@H](C(=O)NCC(=O)N[C@@H](CO)C(=O)N[C@@H](CC(N)=O)C(=O)N[C@H](C(=O)N1CCCC[C@H]1C(N)=O)[C@@H](C)O)C(C)C)[C@@H](C)O)N(C)C(=O)[C@H](C)NC(=O)CN(C)C(=O)[C@H](Cc1ccccc1)NC(=O)[C@H](CC(N)=O)NC(=O)[C@H](CC(N)=O)NC(=O)[C@H](CO)NC(=O)[C@H](CO)NC(=O)[C@H](CCCNC(=N)N)NC(=O)[C@H](Cc1c[nH]cn1)NC(=O)[C@H](CC(C)C)NC(=O)[C@H](Cc1ccccc1)NC(=O)[C@H](CCC(=O)O)NC(=O)[C@H](C)NC(=O)[C@H](CC(C)C)NC(=O)[C@H](CCCNC(=N)N)NC(=O)[C@H](CCC(N)=O)NC(=O)[C@@H](NC(=O)[C@H](C)NC(=O)[C@@H]1CSSC[C@H](NC(=O)[C@H](CCCNC(=N)N)NC(=O)CC[C@H](NC(=O)CCCCCCCCCCCCCCCCCCC(=O)O)C(=O)O)C(=O)N[C@@H](CC(N)=O)C(=O)N[C@@H]([C@@H](C)O)C(=O)N[C@@H](C)C(=O)N[C@@H]([C@@H](C)O)C(=O)N1)[C@@H](C)O — EC50 (CALCR; cAMP, agonist): 0.000355 µM
O=S(=O)(c1ccc(-c2ccc3ncnc(Nc4ccc(OCc5ccc(C(F)(F)F)c(F)c5)c(Cl)c4)c3c2)cc1)N1CCOCC1 — EC50 (Leishmania major; intracellular amastigote growth, luciferase; RAW264.7 macrophages): 2.5 µM
CC[C@H](C)[C@@H](C(=O)N[C@@H](CC(C)C)C(=O)N[C@@H](CO)C(=O)N[C@@H](CO)C(=O)N[C@H](C(=O)N[C@@H](CCC(=O)O)C(=O)N[C@H](C(=O)NCC(=O)N[C@@H](CO)C(=O)N[C@@H](CC(N)=O)C(=O)N[C@H](C(=O)N1C[C@H](O)C[C@H]1C(N)=O)[C@@H](C)O)C(C)C)[C@@H](C)O)N(C)C(=O)[C@H](C)NC(=O)CN(C)C(=O)[C@H](Cc1ccccc1)NC(=O)[C@H](CO)NC(=O)[C@H](CO)NC(=O)[C@H](CCCNC(=N)N)NC(=O)[C@H](CCC(N)=O)NC(=O)[C@H](CC(C)C)NC(=O)[C@H](Cc1ccccc1)NC(=O)[C@H](Cc1c[nH]cn1)NC(=O)[C@H](C)NC(=O)[C@H](CC(C)C)NC(=O)[C@H](CCCNC(=N)N)NC(=O)[C@H](CCC(=O)O)NC(=O)[C@@H](NC(=O)[C@H](C)NC(=O)[C@@H]1CSSC[C@H](NC(=O)[C@H](CCCNC(=N)N)NC(=O)CC[C@H](NC(=O)CCCCCCCCCCCCCCCCCCC(=O)O)C(=O)O)C(=O)NCC(=O)N[C@@H]([C@@H](C)O)C(=O)N[C@@H](C)C(=O)N[C@@H]([C@@H](C)O)C(=O)N1)[C@@H](C)O — EC50 (CALCR; cAMP, agonist): 0.000324 µM
Fc1cccc(COc2ccc(Nc3ncnc4ccc(-c5ccc(CN6CCCCC6)cc5)cc34)cc2Cl)c1 — EC50 (Leishmania major; intracellular amastigote growth, luciferase; RAW264.7 macrophages): 5.5 µM
CC(=O)NCCN(c1nc(NCc2n[nH]c3c2CCCC3)nc(N2CC3C(CCOc4cc(-c5scnc5C)ccc4CNC(=O)[C@@H]4C[C@@H](O)CN4C(=O)[C@@H](NC(=O)C4(F)CC4)C(C)(C)C)C3C2)n1)C(C)C (some centres unmarked) — EC50 (VHL/BRD9 (Homo sapiens, UniProt P40337+Q9H8M2); ternary complex formation, NanoBiT; HEK293T; 2 h, added: MLN4924 2 µM): 0.191 µM
O=C(NC[C@@H](Cc1ccc(F)cc1)N1CCC(O)(C(F)(F)F)CC1)C1(c2ccc(Cl)cc2)CCCC1 — EC50 (Transient receptor potential cation channel subfamily A member 1 (TRPA1, Homo sapiens, UniProt O75762, V875A)): 0.015 µM
C#CCN1CCN(c2nc(N3CCN(c4ccc(Cc5cc(CNC(=O)[C@@H]6C[C@@H](O)CN6C(=O)[C@@H](NC(=O)C6(F)CC6)C(C)(C)C)c(O)cc5-c5scnc5C)cc4)CC3)nc(N3CCN(C(=O)C4CC4)C3)n2)CC1=O — EC50 (VHL/BRD9, with Elongin B/C (Homo sapiens, UniProt P40337+Q9H8M2); ternary complex formation, AlphaScreen; added: 50 nM His-BRD9 and 20 nM biotin-VCB): 3.29 µM
CC[C@H](C)[C@@H](C(=O)N[C@@H](CC(C)C)C(=O)N[C@@H](CO)C(=O)N[C@@H](CO)C(=O)N[C@H](C(=O)N[C@@H](CC(N)=O)C(=O)N[C@H](C(=O)NCC(=O)N[C@@H](CO)C(=O)N[C@@H](CC(N)=O)C(=O)N[C@H](C(=O)N1CCC[C@@H]1C(N)=O)[C@@H](C)O)C(C)C)[C@@H](C)O)N(C)C(=O)[C@H](C)NC(=O)CN(C)C(=O)[C@H](Cc1ccccc1)NC(=O)[C@H](CC(N)=O)NC(=O)[C@H](CC(N)=O)NC(=O)[C@H](CO)NC(=O)[C@H](CO)NC(=O)[C@H](CCCNC(=N)N)NC(=O)[C@H](Cc1c[nH]cn1)NC(=O)[C@H](CC(C)C)NC(=O)[C@H](Cc1ccccc1)NC(=O)[C@H](CCC(=O)O)NC(=O)[C@H](C)NC(=O)[C@H](CC(C)C)NC(=O)[C@H](CCCNC(=N)N)NC(=O)[C@H](CCC(N)=O)NC(=O)[C@@H](NC(=O)[C@H](C)NC(=O)[C@@H]1CSSC[C@H](NC(=O)[C@H](CCCNC(=N)N)NC(=O)CC[C@H](NC(=O)CCCCCCCCCCCCCCCCCCC(=O)O)C(=O)O)C(=O)N[C@@H](CC(N)=O)C(=O)N[C@@H]([C@@H](C)O)C(=O)N[C@@H](C)C(=O)N[C@@H]([C@@H](C)O)C(=O)N1)[C@@H](C)O — EC50 (CALCR; cAMP, agonist): 0.000692 µM

A few entries again:
CNc1ncnc2c1ncn2C1OC(CO)C(O)C1O (centres unmarked) — EC50 (Adenosine receptor A3 (ADORA3, Homo sapiens, UniProt P0DMS8, V169L); G protein activation, agonist): 0.018 µM
